Assay results gathered from unrelated publications.
Numbered parts are unrelated; each lists some results of a single study. Values joined by “and” are separate records of one study, mostly repeats; a detail may differ. Positions count from the first letter of the parent shown.
Sequence of UniProt Q9UF33 (whole entry, looked up): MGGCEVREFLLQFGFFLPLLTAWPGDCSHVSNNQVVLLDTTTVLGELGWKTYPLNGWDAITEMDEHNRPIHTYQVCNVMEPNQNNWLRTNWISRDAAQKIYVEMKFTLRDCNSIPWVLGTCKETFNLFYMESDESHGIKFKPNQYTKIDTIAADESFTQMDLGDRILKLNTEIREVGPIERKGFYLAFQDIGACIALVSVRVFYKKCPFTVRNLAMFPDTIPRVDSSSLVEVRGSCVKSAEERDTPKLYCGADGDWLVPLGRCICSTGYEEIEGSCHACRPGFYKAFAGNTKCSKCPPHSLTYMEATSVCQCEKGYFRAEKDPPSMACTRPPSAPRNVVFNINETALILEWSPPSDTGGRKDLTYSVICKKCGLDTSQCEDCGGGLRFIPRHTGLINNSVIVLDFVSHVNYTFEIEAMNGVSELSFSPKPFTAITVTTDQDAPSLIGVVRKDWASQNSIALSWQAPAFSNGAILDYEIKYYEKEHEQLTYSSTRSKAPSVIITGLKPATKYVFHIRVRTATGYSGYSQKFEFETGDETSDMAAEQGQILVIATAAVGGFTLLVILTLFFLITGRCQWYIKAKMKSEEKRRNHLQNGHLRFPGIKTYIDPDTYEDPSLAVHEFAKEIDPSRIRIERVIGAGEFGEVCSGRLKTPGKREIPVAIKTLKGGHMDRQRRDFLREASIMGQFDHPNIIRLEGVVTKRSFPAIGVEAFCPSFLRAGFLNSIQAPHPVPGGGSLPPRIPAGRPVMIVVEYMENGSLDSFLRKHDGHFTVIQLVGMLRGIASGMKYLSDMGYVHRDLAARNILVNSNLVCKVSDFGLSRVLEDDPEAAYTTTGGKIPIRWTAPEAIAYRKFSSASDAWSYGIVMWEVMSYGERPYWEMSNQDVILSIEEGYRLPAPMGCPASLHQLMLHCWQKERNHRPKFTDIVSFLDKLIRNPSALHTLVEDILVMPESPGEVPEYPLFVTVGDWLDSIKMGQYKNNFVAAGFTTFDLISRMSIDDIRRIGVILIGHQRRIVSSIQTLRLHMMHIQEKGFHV
Sequence of UniProt P17106 (whole entry, looked up): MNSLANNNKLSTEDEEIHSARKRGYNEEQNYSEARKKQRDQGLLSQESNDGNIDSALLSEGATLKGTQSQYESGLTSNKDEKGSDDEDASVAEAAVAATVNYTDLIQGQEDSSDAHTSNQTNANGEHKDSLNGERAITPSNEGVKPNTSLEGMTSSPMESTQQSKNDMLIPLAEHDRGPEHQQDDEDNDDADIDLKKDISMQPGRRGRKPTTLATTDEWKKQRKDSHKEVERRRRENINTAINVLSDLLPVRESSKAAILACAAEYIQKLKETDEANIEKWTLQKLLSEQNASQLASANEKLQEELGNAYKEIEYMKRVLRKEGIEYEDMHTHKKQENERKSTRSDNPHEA

Study 1 — target: CCNB3, cyclin fold, Cln2 fusion (human); method: yeast growth competition, sequencing; matrix: yeast; notes: weak parent motif; baseline: not given; reading: higher = stronger binding
Starting sequence: viral docking peptide; KKVKRRLFETREL; partner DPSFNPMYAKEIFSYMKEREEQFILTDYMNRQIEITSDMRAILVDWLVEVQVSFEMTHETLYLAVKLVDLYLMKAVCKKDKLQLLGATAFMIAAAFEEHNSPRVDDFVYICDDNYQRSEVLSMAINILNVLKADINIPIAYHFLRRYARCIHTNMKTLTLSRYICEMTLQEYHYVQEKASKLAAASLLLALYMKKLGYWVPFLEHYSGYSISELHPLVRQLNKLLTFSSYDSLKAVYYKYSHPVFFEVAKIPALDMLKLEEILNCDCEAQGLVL
| Substitution | normalised enrichment score |
| --- | --- |
| KKVKRRLLETREL [F8L] | 0.259 |
| KKVKRRLFEAREL [T10A] | 0.774 |
| KKVKRRAFETREL [L7A] | -0.184 |
| KKVKARLFETREL [R5A] | 0.165 |
| KKVKKRLFETREL [R5K] | 0.377 |

Study 2 — observed: phage display binding; method: phage display panning NGS; form: peptide; baseline: OGT-panned over input library
Target: UDP-N-acetylglucosamine--peptide N-acetylglucosaminyltransferase 110 kDa subunit (OGT, Homo sapiens, UniProt O15294)
Sequence of UniProt O15294 (whole entry, looked up): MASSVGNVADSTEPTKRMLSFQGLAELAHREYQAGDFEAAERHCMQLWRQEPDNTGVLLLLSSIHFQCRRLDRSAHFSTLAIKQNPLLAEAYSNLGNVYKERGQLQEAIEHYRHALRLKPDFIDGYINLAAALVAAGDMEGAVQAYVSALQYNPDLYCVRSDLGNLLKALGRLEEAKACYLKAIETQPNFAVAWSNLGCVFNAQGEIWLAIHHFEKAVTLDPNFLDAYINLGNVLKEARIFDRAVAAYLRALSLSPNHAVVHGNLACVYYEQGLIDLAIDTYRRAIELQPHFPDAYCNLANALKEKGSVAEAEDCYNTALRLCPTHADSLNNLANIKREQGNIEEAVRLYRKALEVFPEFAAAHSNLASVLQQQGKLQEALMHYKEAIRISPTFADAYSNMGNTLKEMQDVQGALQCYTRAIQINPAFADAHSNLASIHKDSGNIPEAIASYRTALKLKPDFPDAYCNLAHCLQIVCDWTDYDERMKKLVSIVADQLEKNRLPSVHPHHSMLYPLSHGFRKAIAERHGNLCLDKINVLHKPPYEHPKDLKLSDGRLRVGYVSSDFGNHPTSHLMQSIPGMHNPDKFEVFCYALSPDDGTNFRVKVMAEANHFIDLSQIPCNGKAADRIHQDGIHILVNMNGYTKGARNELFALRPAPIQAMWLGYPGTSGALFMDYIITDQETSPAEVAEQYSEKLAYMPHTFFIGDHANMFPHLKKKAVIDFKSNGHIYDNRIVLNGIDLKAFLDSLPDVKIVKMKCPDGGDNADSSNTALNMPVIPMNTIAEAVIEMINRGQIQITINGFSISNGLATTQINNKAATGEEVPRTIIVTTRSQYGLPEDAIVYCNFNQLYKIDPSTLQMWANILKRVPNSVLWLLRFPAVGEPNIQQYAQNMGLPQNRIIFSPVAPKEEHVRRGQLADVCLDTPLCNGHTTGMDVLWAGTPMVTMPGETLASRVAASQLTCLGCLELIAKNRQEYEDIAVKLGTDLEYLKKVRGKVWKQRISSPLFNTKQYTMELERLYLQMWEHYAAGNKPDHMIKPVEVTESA
| Molecule | log2 fold enrichment |
| --- | --- |
| HDHNKWAVNQHGWHV | 3.09 |
| DDWRPLYQIIYTSQD | 6.11 |
| AQNYLPVYQIVWRDN | 3.51 |
| QHPLHHDMHHMRVMD | 2.45 |
| HILVPMRPMTHHHAV | 3.07 |
| HYRSHHTPTQYYYAN | 2.75 |
| QIQTMLHQHSVHHTH | 2.54 |
| QMDGMFPPKYQINSF | 3.58 |

Further values, each from its own experiment
| Molecule | tested on | assay | system | conditions | how to read | quantity | result |
| --- | --- | --- | --- | --- | --- | --- | --- |
| CN(N=O)C(=O)N[C@@H]1[C@@H](O)[C@H](O)[C@@H](CO)O[C@@H]1O |  |  | mice, STZ diabetic neuropathy | dose not given, 14 days after STZ |  | body weight | 33.8 g and 34 g and 34.7 g and 37.4 g |
| O=C1NC(=O)c2c1c1c3ccccc3n3c1c1c2c2ccccc2n1[C@H]1CC[C@@H]3O1 | Ephrin type-A receptor 6 (EPHA6, Homo sapiens, UniProt Q9UF33) | enzyme activity, inhibitor |  | 0.5 µM | baseline: control | remaining activity | 63.9% |
| CTAGTATTTTCACGTGATGCGCCTCACTGCGGATTCGTCTTGATTCGCTTGACGCTGCTG | Centromere-binding protein 1, full length, N-terminal tag (CBF1, Saccharomyces cerevisiae, UniProt P17106, residues 1-351) | protein-binding microarray | double-stranded DNA, one strand shown, in vitro | 0.8 µM, whole 60-bp probe, no competitor | higher = stronger binding | fluorescence intensity | 12100 a.u. |

Excerpt of the above (study 1):
| Substitution | normalised enrichment score |
| --- | --- |
| KKVKRRLLETREL [F8L] | 0.259 |
